# Assay results collected from several papers.
# Compare with care: the assays were run in different laboratories. ± marks the error that the study gave.
SMILES,organism,assay,system,setting,scale,measurement,value
C=C(NC(=O)c1csc(-c2nc3c(cc2O)-c2nc(cs2)C(=O)NC(C(C)O)C(=O)NC(=C(C)OC)c2nc(cs2)C(=O)NC2c4nc(cs4)C(=O)NC(COC(=O)c4c5c6c(cccc6n4O)COC(=O)C(OC4CC(C)(O)C(N(C)C)C(C)O4)C2OC5)c2nc-3cs2)n1)C(N)=O (stereo not drawn),Streptococcus pneumoniae,,"-25, immunocompromised mice, lung","8 mg/kg/day thrice daily, 24 h post-dose",,lung bacterial load,3.96 log10 CFU/lung
Nc1nc(-c2ccccc2)nc2[nH]nc(Nc3ccc(F)cc3F)c12,rhinovirus B48,viral cytopathic effect,HeLa,,,IC50,50 nM
CC(C)(C)NCC(SS(=O)(=O)O)c1ccccc1 (stereo not drawn),Schistosoma mansoni,,infected mouse,"200 mg/kg, 1368 h",baseline: vehicle,liver weight reduction,34%
Nc1nc(-c2ccccc2)nc2[nH]nc(Nc3cccc(Cl)c3)c12,rhinovirus B48,viral cytopathic effect,HeLa,,,IC50,8890 nM
c1ccc(CN2CCOCCOCCN(CCCCCCCCN3CCOCCOCCN(CCCCCCCCN4CCOCCOCCN(Cc5ccccc5)CCOCCOCC4)CCOCCOCC3)CCOCCOCC2)cc1,Klebsiella pneumoniae,,ATCC BAA-2146,"2.5 µM, added: tetracycline",,tetracycline MIC,1000 ± 100 µM
CN(C)c1nc(NCc2ccc(Oc3ccccc3)cc2)c(/N=N/c2ccc(Cl)cc2)c(N(C)C)n1,Ostrinia furnacalis,,,"10 µM, 6 days, larvae, artificial diet",,body length decrease,40%
Cc1cccc2c1N(C(=O)n1ccnn1)CC2,Arabidopsis thaliana,,wild type,"1 µM, seedlings",,hypocotyl length,10.8 mm
Nc1nc(-c2ccccc2)nc2[nH]nc(Nc3cccc(C(F)(F)F)c3)c12,rhinovirus B48,viral cytopathic effect,HeLa,,,IC50,3390 nM
Cc1cc(Cl)cc(S(C)=NC#N)c1NC(=O)c1cc(Br)nn1-c1ncccc1Cl (stereo not drawn),Plutella xylostella,,Raphanus sativus field,"50 ppm, 72 h, 10% wettable powder",,larval survival,10.7%
CC(C)c1ccc(Nc2n[nH]c3nc(-c4ccccc4)nc(N)c23)cc1,rhinovirus B48,viral cytopathic effect,HeLa,,,IC50,2370 nM
c1ccc(CN2CCOCCOCCN(CCCCCCCCCCN3CCOCCOCCN(CCCCCCCCCCN4CCOCCOCCN(Cc5ccccc5)CCOCCOCC4)CCOCCOCC3)CCOCCOCC2)cc1,Klebsiella pneumoniae,,ATCC BAA-2146,"half MIC, added: tetracycline",,tetracycline MIC,125 ± 25 µM
Cc1cc(N2CC[C@@](C#N)(C3(C)CC3)C2=O)cc(C(=O)NCc2cc(F)cc(-c3cnn(C)c3)c2)n1,Plasmodium falciparum,ex vivo drug susceptibility,clinical field isolates,,,IC50,7 to 15 nM

# Repeated from above:
SMILES,organism,assay,system,setting,scale,measurement,value
Cc1cc(N2CC[C@@](C#N)(C3(C)CC3)C2=O)cc(C(=O)NCc2cc(F)cc(-c3cnn(C)c3)c2)n1,Plasmodium falciparum,ex vivo drug susceptibility,clinical field isolates,,,IC50,7 to 15 nM
